# Measured values from different studies.
# Parts stem from different laboratories: compare values within a part only. Values joined by “and” are separate records of one study, mostly repeats; a detail may differ.
# Sequence of UniProt P41595 (whole entry, looked up): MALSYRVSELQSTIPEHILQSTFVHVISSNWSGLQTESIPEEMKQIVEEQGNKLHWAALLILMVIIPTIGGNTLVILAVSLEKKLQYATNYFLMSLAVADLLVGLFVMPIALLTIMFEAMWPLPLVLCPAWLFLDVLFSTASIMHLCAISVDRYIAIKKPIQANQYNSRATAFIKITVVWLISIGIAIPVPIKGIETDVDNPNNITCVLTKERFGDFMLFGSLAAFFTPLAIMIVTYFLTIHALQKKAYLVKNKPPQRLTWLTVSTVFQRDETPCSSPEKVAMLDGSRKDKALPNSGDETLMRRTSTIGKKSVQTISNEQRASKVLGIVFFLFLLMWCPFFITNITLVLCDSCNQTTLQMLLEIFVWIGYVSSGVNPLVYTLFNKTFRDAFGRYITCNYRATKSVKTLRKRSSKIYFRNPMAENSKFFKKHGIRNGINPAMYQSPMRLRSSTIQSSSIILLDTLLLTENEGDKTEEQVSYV
# Sequence of UniProt P28566 (whole entry, looked up): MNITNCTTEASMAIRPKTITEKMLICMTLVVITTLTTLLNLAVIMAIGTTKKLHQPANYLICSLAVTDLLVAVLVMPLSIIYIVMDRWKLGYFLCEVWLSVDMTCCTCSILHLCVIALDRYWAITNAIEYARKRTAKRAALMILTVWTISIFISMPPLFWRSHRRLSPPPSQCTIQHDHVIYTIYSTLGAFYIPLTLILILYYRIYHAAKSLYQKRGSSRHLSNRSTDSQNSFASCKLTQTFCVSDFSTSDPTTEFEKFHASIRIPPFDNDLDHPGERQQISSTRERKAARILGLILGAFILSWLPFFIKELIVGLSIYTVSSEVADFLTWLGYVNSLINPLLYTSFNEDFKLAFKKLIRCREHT

# Sample 1
# SMILES: CC(=O)N[C@@H](Cc1c[nH]c2ccccc12)C(=O)N[C@@H](CCC(=O)C=[N+]=[N-])C(=O)OC(C)C
# Method: flow cytometry
# Host: mice bearing MC38-OVA tumours
# Sample: tumour-infiltrating CD8+ T cells
# Dose: dose not given
measured,reference,cell fraction
TCF1+ CD8+ cells,CD8+ TILs,11.8% and 23.7% and 19.4% and 24.2% and 14.2% and 11.2% and 14.6% and 21.6%
TCF1+ CD8+ cells,OVA-tetramer+ CD8+ TILs,26.2% and 37.2% and 40.5% and 47.7% and 20.8% and 17% and 35.3% and 17.3%
PD-1+ LAG-3+ cells,CD8+ TILs,21.3% and 31.9% and 25.5%
CD62L+ CD8+ cells,CD8+ TILs,23.6% and 16.9% and 17.1% and 28.7%

# Sample 2
# Host: human
# Sample: microsomes or S9
# Tested at: 2 µM
# Time: 0.5 h
Compound,remaining compound
O=C(Nc1nccs1)C1Cc2ccccc2CN1S(=O)(=O)c1cccs1 (stereo not drawn),0.233%
c1ccc(-c2oc3ncn4ncnc4c3c2-c2ccccc2)cc1,95.9%
CC(C)c1nc(CN(C)Cc2cnc(N(C)C)nc2)cs1,12.2%
CCn1ccc(C(=O)Nc2c(C)cc(C)cc2C)n1,90.4%
Nc1cc(Cl)c(Oc2ccc(Cl)nn2)c(Cl)c1,91.9%
C/C(=C\COc1ccc2ccc(=O)oc2c1)CC/C=C(\C)CCC(=O)C(C)(C)O,65.3%
CCOC(=O)Cc1cc(=O)n2nc(Cc3ccccc3)c(-c3ccccc3)c2[nH]1,55.2%
Cc1nnsc1C(=O)Nc1onc2c1CSC2,22.3%

# Sample 3
# Cell line: mouse MPNST tumor cells
# Method: high-content immunofluorescence imaging
# Measured: nuclear SOX9
# Tested at: 10 µM
# Time: 12 h
# Setting: mean of 2 replicates
# Reference: DMSO control
# Direction: higher = more nuclear SOX9
Compound,nuclear SOX9 intensity
CC(C)(C)NCC(O)c1cc(O)cc(O)c1 (stereo not drawn),109 % of DMSO
Nc1ncnc2n[nH]c(Nc3ccc(F)cc3)c12,88.9 % of DMSO
CCCCOc1cc(CC2CNC(=O)N2)ccc1OC (stereo not drawn),94.7 % of DMSO
C[C@](N)(Cc1ccc(O)c(O)c1)C(=O)O,98.3 % of DMSO and 97.5 % of DMSO
Cc1nc2sccn2c(=O)c1CCN1CCC(=C(c2ccccc2)c2ccc(F)cc2)CC1,120 % of DMSO
CCC(=O)N1CCOc2c(cc(-c3ccc(OC)c(OC)c3)cc2OC[C@H]2CCCN(C)C2)C1,129 % of DMSO and 164 % of DMSO

# Other studies, line by line
# Tested at: 10 µM
SMILES,target or system,read-out,method,time,quantity,result
Cn1cncc1[C@@](O)(COc1ccc(C#N)cc1-c1ccc(OC(F)(F)F)cc1)c1ccc(C#N)cc1,HEK293T,,high-content imaging,24 h,membrane-permeable cells,55.2%
COc1cc(N[C@@H]2CCCC[C@]2(O)C(F)(F)F)ccc1F,"HTR1E (Homo sapiens, UniProt P28566)",ligand displacement,,,inhibition,-4.13%
COc1cc(-c2cn(C3CCc4ccccc4N(CC(F)(F)F)C3=O)nn2)ccc1-n1ccc(C)n1 (stereo not drawn),"HTR2B (Homo sapiens, UniProt P41595)",binding,radioligand binding,,inhibition,6.39%

# Excerpt of the above (sample 3):
Compound,nuclear SOX9 intensity
CC(C)(C)NCC(O)c1cc(O)cc(O)c1 (stereo not drawn),109 % of DMSO
Cc1nc2sccn2c(=O)c1CCN1CCC(=C(c2ccccc2)c2ccc(F)cc2)CC1,120 % of DMSO
CCC(=O)N1CCOc2c(cc(-c3ccc(OC)c(OC)c3)cc2OC[C@H]2CCCN(C)C2)C1,129 % of DMSO and 164 % of DMSO
